Measured values collected from several papers.
Each numbered part is a random draw from the data of one study; scales do not carry over between parts.

Sample 1
Target: Interferon regulatory factor 5, full length, phosphomimetic (IRF5, Homo sapiens, UniProt Q13568-2, residues 1-514, S451D/S453D/S456D/S462D)
Technique: protein-binding microarray
Molecule type: double-stranded DNA, one strand shown
Matrix: in vitro
Tested at: 940 nM top
Setting: 60-bp whole probe
With: salmon DNA 0.4 mg/ml
Reference: random background probes
Reading: higher = stronger binding
All sequences stand within: GCCTAGCAC … GTCTTGATTCGCTTGACGCTGCTG
`TATGTTCACTATTTAAGAACGTGCTAG` — result for “fitted relative affinity”: 0.0377 z-score.
`TTAGGTATCGGTTTCGATTAGTGCTAG` — result for “fitted relative affinity”: 12.4 z-score.
`TCTGTTTTTGCTTTCTTTATGTGCTAG`: “fitted relative affinity” 2.39 z-score.
`CTCCATGAACAGGGCTGATGGTGCTAG`: “fitted relative affinity” -0.211 z-score.
For `GACGGTCTCGGTATTGGGACGTGCTAG`, “fitted relative affinity” read 3.48 z-score.
For `GACGGTTTCGACGATCGGGACGTGCTA`, “fitted relative affinity” read 7.39 z-score.
For `GACGCACTGCTACTGCTGACGTGCTAG`, “fitted relative affinity” read -0.259 z-score.
`GACGATTTCAGACTGGAGCCGTGCTAG`: “fitted relative affinity” -0.63 z-score.
For `TCAATTCTCTTCTTGCAACTGTGCTAG`, “fitted relative affinity” read 1.16 z-score.
Under “fitted relative affinity”, `TTAGGTCTCGGACTGGGTTGGTGCTAG` is recorded as 0.769 z-score.
`GAGAGTAGCTTTCTGAGGGCGTGCTAG` — result for “fitted relative affinity”: 0.746 z-score.
For `AAACGGGCTTCTTTTTCTCAGGTGCTA`, “fitted relative affinity” read 0.525 z-score.
Under “fitted relative affinity”, `GACGAATTCAGTATCGAGACGTGCTAG` is recorded as 2.54 z-score.
`GACGGTATAGGGACTGGGGACGTGCTA` — result for “fitted relative affinity”: -0.124 z-score.
For `TTAGGTCTCGGACTGGCTTAGTGCTAG`, “fitted relative affinity” read 1 z-score.
`ATGCTACTGCATTTTTTTTTGTGCTAG` — result for “fitted relative affinity”: -0.0252 z-score.

Sample 2
Target: Histone acetyltransferase KAT6A, winged helix 2, GST fusion (KAT6A, Homo sapiens, UniProt Q92794, residues 85-181)
Technique: protein binding microarray
Molecule type: double-stranded DNA, one strand shown
Matrix: in vitro
Tested at: not given
Setting: 8-mer, flanks averaged, mean of 2 arrays, mostly near background
Reference: not given
Reading: higher = stronger binding
Construct (chain): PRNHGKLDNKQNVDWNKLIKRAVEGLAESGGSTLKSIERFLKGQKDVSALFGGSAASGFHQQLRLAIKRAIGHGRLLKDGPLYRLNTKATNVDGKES
For `CGGAGAAG`, the E-score was 0.101.
`AGGGCACG` gave an E-score of -0.0941.
The E-score of `GGAGCTTA` is reported as 0.0225.
`CAGGCGCG` gave an E-score of 0.139.
`ACGAACCT` has an E-score of 0.07.
For `ACATCGCA`, the E-score was -0.124.
With `CGTGAACC` the E-score was -0.00026.
The E-score of `AGTGACTG` is reported as -0.138.
`CAATTGGC` gave an E-score of 0.0355.
`ATTCGGTC` gave an E-score of -0.0482.
`GCGAACAC` has an E-score of 0.116.
`ATATGCTC` gave an E-score of 0.0636.
`CAAGTTGC` has an E-score of -0.0763.
`GAGGAGGC` gave an E-score of -0.0273.
With `ACGTAGGG` the E-score was -0.277.
With `AAGCCCAA` the E-score was -0.0573.
The E-score of `CAGCGTTA` is reported as -0.194.
The E-score of `GTTCTGCA` is reported as 0.0343.
For `AGTAGCAA`, the E-score was 0.176.
The E-score of `AAAGAACA` is reported as 0.0585.
The E-score of `AGACCCCG` is reported as 0.108.
`CAAGAGGG` has an E-score of -0.00562.
`TCAATAAA` has an E-score of 0.0551.
`ACCTTAAT` gave an E-score of -0.0975.
For `GATTGGCA`, the E-score was -0.00865.

Sample 3
Target: RNA binding protein fox-1 homolog 2, RRM domain, GST-SBP tag (RBFOX2, Homo sapiens, UniProt O43251-10, residues 100-194)
Technique: RNA Bind-n-Seq
Molecule type: RNA
Matrix: in vitro
Tested at: 365 nM
Setting: natural RNA segment, single round, ends assumed
Reference: no-protein control
Reading: higher = stronger binding
All sequences stand within: GGGAGUUCUACAGUCCGACGAUC … UGGAAUUCUCGGGUGCCAA
Residues (chain): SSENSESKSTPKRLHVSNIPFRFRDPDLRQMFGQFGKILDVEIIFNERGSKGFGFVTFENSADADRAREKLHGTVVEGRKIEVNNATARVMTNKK
Under “RBNS enrichment (R)”, `ACUGUAAAGACACUGCUGUCUCCUUAAUAUGCUCCUUAACACGUAUGUUGAUGUAGCAUCAUUUUGUGGAUAGGAAAAAAAAUGUUUGACCUUCAGAUAUUUUCUACUUA` is recorded as 0.371.
`AAGACUACUGGACUUCUAUCAAUGGUACUCUAAUCAGUCCUUAUUAUCCCAGCUUGCUGAGGGGCAGGGAGAGCGCCUCUUCCUCUGGGCAGCGCUAUCUAGAUAGGUAA` — result for “RBNS enrichment (R)”: 0.325.
`AUUCUCAUCAGGGUUUCUUGUGCCCUUCUGCUGUGGCAGUGACAACUGUGCCUAGCCGGGGCUGCCACAGCUCCCAGGUAUUUUCUACAGGACCAUCUGAGCGGGCAGCC`: “RBNS enrichment (R)” 0.352.
`UGUUUGCUUAAACUGUGAUUUUUUUUCCCCUCCCUAAUUUCAGGGGUGAGAUUGACUUUGGGAAGACAGAUUAGUUCUUUGUCAGGCCAACAAGUGAUGGAGUGCGGGAG`: “RBNS enrichment (R)” 0.657.
`GGUCAGGUUUCUGAGUACUGGCAUUGGAUUUUAAGCGGCAUGUGACCCUUUGUGUUUUAGUGACUCAGAAAAGUCAAGCCAUUUGCAAAAGUUAGCAGUUUGUUUUGUCA`: “RBNS enrichment (R)” 1.85.
`GCUGUGAGGCAGCGGGGAGGGACCGUGCACCCGUGGCUAUCAGAGCCCCUCCGCUGUCCCACCCUGGGCCUGGGACACGGGCCUGGGGCAGUGUGUGUCUGCUGGUCAUG`: “RBNS enrichment (R)” 0.293.
`CUCCCCUAGUUGGCCACUGGGGCCACCACCCUGACCACCACUGUGCCCCUCAUUGUUACUGCCUUGUGAGAUAAAAACUGAUUAAACCUUUGUGGCUGUGGUUGGCUGAC`: “RBNS enrichment (R)” 1.2.
`AAACCAUUUUGCUGUCCCUUUUCCUUUUUUGAUGUUCUUUCACCCUUUUCUGUUUGCUAAGUGAGGAUGAAAAAAUAACACUGUACUGCAAUAAGGGGAGAGUAACCCUG` — result for “RBNS enrichment (R)”: 1.07.
`CAAGAUUCUAGAAAUCAAAGGAGCCAUACAAUCCGGCAGGAGGCAGUGACUGUGGUCUCAGUGCUGGGAGCCCAGGAGGAACCGUCAUGCCUUACCUCCUUCUAAUGGGU`: “RBNS enrichment (R)” 0.501.
`CUCUCUACCCUGAAAUGGGUGAAGGAGUCUUGUUCAGUUGUUUUAUAAGAGGUGCUCACAGAAAGAAUAAGGGAAACUUCCCUGAUACCUUAAUGCAAAAUCAAAAUUAU`: “RBNS enrichment (R)” 0.286.
For `UUUAUUUUUAUUUAAAUGUCAAUAGUUGUUUUUUAAAAUCCAAAUCAGAGGUGCAGGCCACCAGUUAAAUGCCGUCUAUCAGGUUUUGUGCCUUAAGAGACUACAGAGUC`, “RBNS enrichment (R)” read 0.687.
`GUAUCAAAGCAUAUAAAAUAUUUUCUAUGUAAGUAAAUUGCAUCUUUAUGCUAGUGAACAAAGUAGCAAUAAAUGUUCAUUUUUGGAUGGCAGUACACAUUGUUAACAAU` — result for “RBNS enrichment (R)”: 0.312.

Sample 4
Target: RING finger protein unkempt homolog, zinc fingers 1-6, GST-SBP tag (UNK, Homo sapiens, UniProt Q9C0B0, residues 30-357)
Technique: RNA Bind-n-Seq
Molecule type: RNA
Matrix: in vitro
Tested at: not given
Setting: RNA with constant flanks, human and mouse sites, ends assumed
Reference: input RNA pool
Reading: higher = stronger binding
All sequences stand within: GGGAGUUCUACAGUCCGACGAUC … CAACAGAGGAUUGAGCAUCA
Construct (chain): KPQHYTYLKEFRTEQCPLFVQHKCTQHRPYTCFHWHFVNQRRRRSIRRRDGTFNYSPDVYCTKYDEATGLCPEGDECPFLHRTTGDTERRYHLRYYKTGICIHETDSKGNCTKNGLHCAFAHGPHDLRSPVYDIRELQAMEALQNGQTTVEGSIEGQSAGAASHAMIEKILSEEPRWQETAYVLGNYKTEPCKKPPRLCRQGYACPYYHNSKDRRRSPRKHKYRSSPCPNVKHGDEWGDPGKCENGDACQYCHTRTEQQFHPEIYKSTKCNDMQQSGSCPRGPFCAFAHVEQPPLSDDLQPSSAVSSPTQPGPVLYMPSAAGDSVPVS
`CAUGACAGCAACACCGAUAUGUUUCAGAUUGGCCGGUCGACUGAAAGCCCCAUUGAUUUUGUAGUAACUGACACGGUUCCUGGAAGUCAAAGUAAUUCUGAUACACAGUCAGUACAAAGC` has a bound/input enrichment of 0.0694 ratio.
`UUGUAAUGUGGCCUGAAAACAAGCUAACUGUAUUAGAAACUAUUCAAAAACUAGGUAUUUUUAGUGACCUGUAGGCAGUGGCAAAUACAGACAUGUGAACCUUGAAUACAUUACAUUUCU` has a bound/input enrichment of 1.66 ratio.
`GCCCCAGAGCACAAGAAAACCCAAAGUGGAGAGAGGGGAAGAAAGAAAGCACUGAGUCAUCCAUCCAGAAGGGGGGAGAGCAGAGCGCAGCCGCCCAGGCAGGAGCAUCAGCCAGCGAUA` has a bound/input enrichment of 0.299 ratio.
For `AUUAGGGAACUGGAACAAGCCAAUGAUGACCUGGAAAGAGCCAAACGAGCCACAAUCAUGUCCCUGGAAGACUUUGAGCAGCGUUUGAAUCAAGCCAUUGAAAGAAAUGCCUUCCUAGAG`, the bound/input enrichment was 0.235 ratio.
With `AUCAAGUAUUUUGGGGAUAUUAUUAGCGUGGGACAGAGAUUGUUGCAAGGGGCCCGGAUUUUAGGAAUUCCUGUUAUUGUAACAGAACAAUACCCUAAAGGUCUUGGGAGCACGGUUCAA` the bound/input enrichment was 0.304 ratio.
For `GAAAAUGAAUUACAGAUUGAACAGGAAAAUGAAAAACAGCUGAAGGAUCAACUUCAAGAAAUAAGACAGAAAAUAACAGAAUGUGAAAACAAAUUAAAGGACUAUUUGGCACAGAUCCGG`, the bound/input enrichment was 0.626 ratio.
The bound/input enrichment of `ACCGGCGCAGUGCCCCGUCCUGAUUGAUCGCAUCGCUGGGCUCAGAUGACUGUAAAAUGAAUAGAUGAAAUCCUUGCUUCUGGAAGAUUUUCUUGGGCAUCUCCGGGAAAGUGCGUUUUA` is reported as 0.223 ratio.
`CUCUUCCUCCCCACCCUGAAAAAAAUGAGUUCCUAUUUUUUCUGGGAGAGGGGGGGAUUGAUUAGAAAAAAAUGUAGUGUGUUCCAUUUAAAAUUUUGGCAUAUGGCAUUUUCUAACUUA` gave a bound/input enrichment of 0.243 ratio.
`GAGAGUGACCAGACAUUAGCAGCUCUGCUCAGCCCUAAAGAAAGUAGUGGAGGAGAAAAAGAAGUACCUCCCCCUCCUAAAGAGACACUGCCUGAUUCAGGAUUUUCUGCCAAUAUUGAG` gave a bound/input enrichment of 0.176 ratio.
`UUUGCUUUCCUAGUCGCUCAUUGCUUCCUGUCCAUUUACGAAAUGGUAGUGGAUGUAUUGUUCUUGUGUUUUGCCAUUGAUACAAAAUACAAUGAUGGGAGCCCUGGCCGAGAAUUCUAU` has a bound/input enrichment of 0.166 ratio.
With `ACGCGGUUUCUGGUGCAGAACGCGGAGCGGCCUGGCGCCUCCCUGGGCCCGGGGGCUCUGCUGCGGGCCGAGUUCCACCAGCACACGCACCAGCACACACACCAGCACACACACCAGCAC` the bound/input enrichment was 0.354 ratio.

Repeated from above (sample 1):
For `GACGGTCTCGGTATTGGGACGTGCTAG`, “fitted relative affinity” read 3.48 z-score.
For `GACGGTTTCGACGATCGGGACGTGCTA`, “fitted relative affinity” read 7.39 z-score.
For `GACGCACTGCTACTGCTGACGTGCTAG`, “fitted relative affinity” read -0.259 z-score.
`GACGATTTCAGACTGGAGCCGTGCTAG`: “fitted relative affinity” -0.63 z-score.
For `TCAATTCTCTTCTTGCAACTGTGCTAG`, “fitted relative affinity” read 1.16 z-score.
